Assay results gathered from unrelated publications.
Lines come from different studies, so protocols differ. Values joined by “and” are separate records of one study, mostly repeats; a detail may differ. ± gives the spread as reported.
UniProt P20813, sequence (whole entry, looked up): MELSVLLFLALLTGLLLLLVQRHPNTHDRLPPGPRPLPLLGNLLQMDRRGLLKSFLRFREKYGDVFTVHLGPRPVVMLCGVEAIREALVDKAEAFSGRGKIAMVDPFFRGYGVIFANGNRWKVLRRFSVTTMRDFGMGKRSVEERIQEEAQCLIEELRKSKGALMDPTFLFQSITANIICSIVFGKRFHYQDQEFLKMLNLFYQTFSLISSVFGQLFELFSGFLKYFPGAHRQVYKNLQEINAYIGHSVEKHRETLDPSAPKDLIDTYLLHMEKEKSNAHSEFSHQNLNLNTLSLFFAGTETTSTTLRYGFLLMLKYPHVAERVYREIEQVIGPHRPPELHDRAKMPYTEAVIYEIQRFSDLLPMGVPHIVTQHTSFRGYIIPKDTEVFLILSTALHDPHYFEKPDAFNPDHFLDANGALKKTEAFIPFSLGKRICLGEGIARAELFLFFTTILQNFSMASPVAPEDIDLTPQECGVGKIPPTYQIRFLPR
UniProt Q9H4B4, sequence (whole entry, looked up): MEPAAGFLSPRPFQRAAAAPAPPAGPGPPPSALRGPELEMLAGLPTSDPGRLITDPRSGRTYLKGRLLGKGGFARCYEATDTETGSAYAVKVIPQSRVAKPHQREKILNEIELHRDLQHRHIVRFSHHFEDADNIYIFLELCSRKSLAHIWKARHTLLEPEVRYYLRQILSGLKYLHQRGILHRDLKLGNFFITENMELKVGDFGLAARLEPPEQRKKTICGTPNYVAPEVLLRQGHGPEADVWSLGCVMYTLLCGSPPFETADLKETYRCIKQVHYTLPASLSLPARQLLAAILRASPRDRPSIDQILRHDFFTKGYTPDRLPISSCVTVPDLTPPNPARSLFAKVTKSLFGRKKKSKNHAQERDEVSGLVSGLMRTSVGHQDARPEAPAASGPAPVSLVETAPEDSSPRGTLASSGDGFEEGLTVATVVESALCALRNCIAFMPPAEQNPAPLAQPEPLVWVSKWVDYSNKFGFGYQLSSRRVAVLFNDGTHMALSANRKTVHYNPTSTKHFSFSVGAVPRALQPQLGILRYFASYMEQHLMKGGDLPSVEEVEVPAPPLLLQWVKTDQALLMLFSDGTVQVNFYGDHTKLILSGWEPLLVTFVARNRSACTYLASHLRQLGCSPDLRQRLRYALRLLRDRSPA

Structure (SMILES) | target or system | test | system | conditions | scale | quantity | result
C=CC(=O)Nc1cccc(Cn2ncc3cnc(Nc4cnn(CCOC)c4)nc32)c1 | PLK1 human | binding, KINOMEscan | – | 100 nM | lower = stronger binding | percent of control | 96%
Cn1ccc(-c2cc(Cl)c(Cl)c3[nH]c4c(c23)CN(C(=O)CO)CC4)n1 | – | – | C57BL/6 mice, whole blood | intravenous, 0.5 mg/kg | – | blood clearance | 26.5 mL/min/kg
CNC(=O)C1CCCN(C(=O)C2CC3CCC2N3C(=O)[C@@H]2C[C@@H](O)CN2C(=O)NCc2cccc(Cl)c2F)C1 (mixture of isomers) | Cytochrome P450 2B6 (CYP2B6, Homo sapiens, UniProt P20813) | preincubation with NADPH | human | 0.617 µM | relative to: negative control | remaining activity | 104% and 106% and 92.7%
Cc1nc(N)nc2c1C(=O)N[C@@H](c1ccc(F)cc1-c1cccc(O[11CH3])n1)C2 | – | ex vivo biodistribution | mouse, U87 subcutaneous xenograft, tumour | dose not given, 60 min, vehicle pretreatment baseline | – | radioactivity uptake | 3.7 ± 1.8 %ID
O=C(O)CN1CCN(CC(=O)O)CCN(CC(O)CN(CC(O)CN2CCN(CC(=O)O)CCN(CC(=O)O)CCN(CC(=O)O)CC2)C[C@H](O)[C@@H](O)[C@H](O)[C@H](O)CO)CCN(CC(=O)O)CC1 (stereo partly drawn) | – | pH-potentiometry, refers to: ZnHL | – | 25 °C, 0.15 M NaCl | – | log K | 9.12
Cc1ncsc1-c1ccc(C(C)NC(=O)C2CC(O)CN2C(=O)C(NC(=O)CCCCCCCCCCN2CCCC(Nc3ncc(Cl)c(Nc4ccccc4S(=O)(=O)C(C)C)n3)C2)C(C)(C)C)cc1 (stereo not drawn) | 22Rv1 | RNA-seq, refers to: USP27X mRNA | – | concentration not given | relative to: DMSO | log2 fold change | -2.04
CC(C)(O)c1ncc([S@](N)(=O)=NC(=O)Nc2c3c(cc4c2CCC4)CCC3)s1 | – | refers to: musculoskeletal, connective tissue | healthy human | oral, dose not given, 14 days, all active multiple doses pooled | – | subjects with TEAEs | 13%
Cc1c(Cc2cc(F)cc(OC(C)(C)C(=O)O)c2)c2ccc(C(=O)N[C@@H](C)c3cc(F)cc(C(C)(C)C)c3)cc2n1CC1CCC1 | – | – | mouse liver microsomes | 1 µM, added: microsomes 1 mg/mL | – | half-life | 17 min
CC(C)[C@H](NC(=O)[C@H](Cc1c[nH]c2ccccc12)NC(=O)[C@H](CCCNC(=N)N)NC(=O)[C@H](CCCNC(=N)N)NC(=O)[C@@H](NC(=O)[C@@H](NC(=O)[C@H](CCCNC(=N)N)NC(=O)[C@@H](NC(=O)[C@@H](NC(=O)[C@H](CCCNC(=N)N)NC(=O)[C@H](CCCNC(=N)N)NC(=O)[C@@H](NC(=O)[C@H](Cc1c[nH]c2ccccc12)NC(=O)[C@H](CCCNC(=N)N)NC(=O)[C@H](CCCNC(=N)N)NC(=O)[C@@H](NC(=O)[C@H](CCCNC(=N)N)NC(=O)[C@H](CCCNC(=N)N)NC(=O)[C@@H](NC(=O)[C@H](Cc1c[nH]c2ccccc12)NC(=O)[C@H](CCCNC(=N)N)NC(=O)[C@@H](N)CCCNC(=N)N)C(C)C)C(C)C)C(C)C)C(C)C)C(C)C)C(C)C)C(C)C)C(=O)N[C@@H](CCCNC(=N)N)C(=O)N[C@@H](CCCNC(=N)N)C(=O)O | – | – | CD1 mouse, plasma | intravenous, 15 mg/kg, 16 h, [14C]-labelled compound | – | creatinine | < 0.2 mg/dL
Cc1nn(-c2cccc(N)c2)c(=O)c2cnc(Nc3ccc(N4CCNCC4)cc3)nc12 | PLK3 (Homo sapiens, UniProt Q9H4B4) | kinase activity, inhibitor, SelectScreen kinase profiling | – | – | – | IC50 | > 10000 nM
CC(C)OCCOCc1ccc(OCC(O)CN(N=O)C(C)C)cc1 (stereo not drawn) | Salmonella typhimurium | Ames test | TA1535 | 158 µg/plate, 30 % hamster S9 | relative to: solvent control | revertant fold increase | 5.1 fold
N#C[C@@H]1CC(F)(F)CN1C(=O)CNC(=O)c1ccnc2c(NC(=O)[C@H](CCCCNC(=O)CCOCCOCCOCCOCCOCCOCCNC(=O)CN3CCN(CC(=O)[O-])CCN(CC(=O)[O-])CCN(CC(=O)[O-])CC3)NC(=O)CCCc3ccc(I)cc3)cccc12.[177Lu+3] | – | – | mouse, U-87 MG tumour xenograft, brain | 24 h | – | tissue uptake | 0.37 ± 0.37 %ID/g
O=C(Nc1cnccc1-c1ccc([18F])cc1)c1ccnc(NC(=O)C2CC2)c1 | – | ex vivo gamma counting | GSK-3β transgenic mice, late-stage, liver | intravenous, 120 min, mean, no P-gp inhibitor | – | SUV | 5.43
N=C(N)NCCC[C@@H]1NC(=O)[C@H](CO)NC(=O)[C@@H](NC(=O)[C@H](CO)NC(=O)[C@H](CO)NC(=O)[C@H](Cc2c[nH]c3ccccc23)NC(=O)CNC(=O)[C@H](CO)NC(=O)[C@@H](N)Cc2c[nH]c3ccccc23)CSSC[C@@H](C(=O)NCC(=O)O)NC(=O)[C@H](CO)NC1=O | – | – | patients, plasma | intravenous, 10 mg/kg, thrice weekly, mean | – | AUC(0-inf) | 908 ng·h/mL
CC1Cc2ccccc2N1C(=O)CN1CCN(Cc2ccccc2)CC1 (stereo not drawn) | – | – | female NMRI mice, brain | intraperitoneal, 10 mg/kg free base, 60 min | – | brain concentration | 590 ng/mL
Cc1cc(-c2ccc(C(=O)[C@@H]3CCCC[C@H]3C(=O)Nc3cnn4c3C(=O)NCC4)cc2)[nH]n1 | – | – | human, faeces | oral, 200 mg, 96-120 h | relative to: dose | recovery of radioactivity per interval | 2.72%
Cc1c(Cc2cc(F)cc(OC(C)(C)C(=O)O)c2)c2ccc(C(=O)N[C@@H](C)c3ccc(C(C)(C)C)cc3)cc2n1CC1CCC1 | – | – | human liver microsomes | 1 µM, added: microsomes 1 mg/mL | – | half-life | > 60 min
O=C(Nc1cnccc1-c1ccc([18F])nc1)c1ccnc(NC(=O)C2CC2)c1 | – | PET imaging | FVB/NJ mice, both sexes, brain | intravenous, 120 min post-injection | – | SUV | 0.035

Structure (SMILES) | target or system | test | system | conditions | scale | quantity | result
Cc1nn(-c2nc3c(F)cc(F)cc3s2)c(O)c1C(c1ccc(C(F)(F)F)cc1)c1c(C)nn(-c2nc3c(F)cc(F)cc3s2)c1O | – | – | ICR mouse, plasma | intravenous, 5 mg/kg | – | Clast | 253 ng/mL and 272 ng/mL and 1770 ng/mL
CN(C)CCCCCN(C)Cc1cc2ccccc2o1 | Trypanosoma cruzi | reporter mRNA translation, inhibitor, refers to: Renilla luciferase mRNA | cell-free extract | concentration not given, test 3 | relative to: positive over negative control | translation activity | 95.2%
CCCCN1C(=O)c2cccc3c(NCCCCN4CCOCC4)ccc(c23)C1=O | – | – | acetonitrile | – | – | fluorescence quantum yield | 0.26
C[C@@H](C(=O)O)c1ccc(-c2ccccc2)c(F)c1 | – | HPLC | sample solution | concentration not given, 12 h, room temperature, solution stability | – | peak area change, RE | 0.59%
Cc1ccc(C(NC(=O)c2cc(-c3ccccc3)n(-c3ccccc3)n2)c2ccncc2)cc1 (stereo not drawn) | – | – | human liver microsomes | 4 h | – | depletion | < 15%
COC1CN([C@H]2CC[C@H]([C@@]3(C)Oc4c(Cl)cc(C(=O)NCc5c(SC)cc(C)[nH]c5=O)c(C)c4O3)CC2)C1 | – | RNA-seq, refers to: FAM110C mouse homolog | mouse, HT-1376 xenograft, whole blood | dose not given | relative to: vehicle | log2 fold change | 2.93
CCCC[C@H](NC(C)=O)C(=O)N[C@@H](CO)C(=O)N[C@H](C(=O)N1CCC[C@H]1C(=O)N[C@]1(C)CCCCCCC=CCCC[C@@](C)(C(=O)N[C@@H](Cc2ccccc2)C(=O)N[C@@H](CCCCN)C(=O)N[C@@H](CCCNC(=N)N)C(=O)N[C@@H](CC(C)C)C(=O)N[C@@H](CCC(N)=O)C(N)=O)NC(=O)[C@H](CCCNC(=N)N)NC(=O)[C@H](CCCC)NC(=O)[C@H](CC(C)C)NC(=O)[C@H](CCCNC(=N)N)NC(=O)[C@H](CCCNC(=N)N)NC(=O)[C@H](CCCNC(=N)N)NC1=O)[C@@H](C)O | proteinase K | LC-MS | – | 25 µM, 369.1 min, pH 7.4 | – | remaining peptide | 52%
O[C@@H](COc1ccc2cc(Br)ccc2c1)Cn1ccnc1 | Trypanosoma cruzi | reporter mRNA translation, inhibitor, refers to: Renilla luciferase mRNA | cell-free extract | concentration not given, test 3 | relative to: positive over negative control | translation activity | 67.1%
Nc1ncc(-c2cc(-c3cnn(CC(F)(F)F)c3)ncc2F)nc1C(=O)NC1CNCC(F)C1 (stereo not drawn) | SGK3 | KINOMEscan | – | 1 µM | relative to: DMSO control | remaining binding | 51%
CN(O)C(=O)CCC(=O)NCCCN(CCCCN(CCCNC(=O)CCC(=O)N(C)O)C(=O)CCC(=O)N(C)O)C(=O)CCC(=O)N(C)O.[89Zr] | – | radio-TLC | aqueous buffer | 1 d, pH 7.2, 37 °C, 89Zr-labelled complex, added: CaCl2 10-fold excess | – | intact complex | 99.5 ± 0.9%
CNS(=O)(=O)Nc1nccc(Cc2c(C)c3ccc(Oc4ncccc4F)cc3oc2=O)c1F | SCC-3 | cell viability | – | 7 days | – | IC50 | 336 nM
CCC1CNC(CC)CN(C(C(=O)[O-])c2ccc(C(=O)[O-])cc2)C(CC)CN(CC(=O)[O-])C(CC)CN1.[Mn+2] (stereo not drawn) | – | ICP-MS | BALB/c mice, liver | intravenous, 0.05 mmol/kg, 30 min | relative to: injected dose | Mn uptake | 6.62 ± 0.87%
COCCN(C)CC(=O)NC(Cc1ccc(-c2ccccc2)cc1)B(O)O (stereo not drawn) | – | – | male Sprague-Dawley rats, plasma | intravenous, 1 mg/kg, citrate ester | – | tmax | 4.8 min
CC(C)c1cc(C(=O)NCCN(C)C)c2cnn(C(C)C)c2n1 | – | metabolic stability | mouse, liver microsomes | – | – | microsomal CLint | 116 µL/min/mg
CN(C)S(=O)(=O)c1ccc(S(=O)(=O)N2CCC(n3c(=O)[nH]c4ccccc43)CC2)cc1 | – | – | mouse | intraperitoneal, 6 mg/kg, 3 day | relative to: day 0 | body weight | 95.4%
CN1CCCNC(=O)c2cccc(c2)C(=O)NCCCN(C)CCCNc2cccc3c2C(=O)c2cccc(c2C3=O)NCCC1 | – | – | mouse xenograft model | dose not given, day 6 | – | body weight | 25 g and 26 g and 27 g
CN1CCC[C@]1(C)/C=C/S(=O)(=O)NC(=O)Nc1c2c(cc3c1CCC3O)CCC2 (stereo partly drawn) | – | – | human, plasma | oral, 100 mg twice daily of parent drug, day 14, metabolite of dosed drug | – | Cmax at first steady-state dose | 94900 ng/mL
COCC1CN(C2CCN(c3cc(OC)c(Nc4ncc(Br)c(Nc5ccc6c(c5P(C)(C)=O)OCCO6)n4)cc3C)CC2)C1 | – | phase 1 trial | human, advanced EGFR-mutant NSCLC | oral, dose not given | – | treatment-related serious AEs | 14.8%
